# Measured values pooled from the literature.
# Compare with care: the assays were run in different laboratories. Numbers after ± are the reported error.
Molecule,cell line,test,setting,CC50
CN(C(=O)C(Cc1ccccc1)NC(=O)CN1C(=O)NC2(CCCCC2)C1=O)c1ccc(Cl)cc1 (stereo not shown),TZM-GFP,XTT,72 h,> 100 µM
nanaomycin,HepG2,cell viability,"24 h, 37 °C",0.514 µM
CC[C@H](C)[C@H](NC(=O)[C@H](CCCCN)NC(=O)[C@H](CCCCN)NC(=O)[C@H](Cc1ccc(O)cc1)NC(=O)[C@H](CC(C)C)NC(=O)[C@@H]1CCCN1C(=O)[C@H](C)NC(=O)CNC(=O)CNC(=O)[C@H](CO)NC(=O)CNC(=O)CNC(=O)[C@H](CO)NC(=O)[C@@H](NC(=O)[C@H](CC(C)C)NC(=O)[C@H](CC(C)C)NC(=O)[C@H](C)NC(=O)[C@H](Cc1c[nH]c2ccccc12)NC(=O)[C@H](Cc1ccc(O)cc1)NC(=O)[C@H](Cc1c[nH]cn1)NC(=O)[C@H](CCC(=O)O)NC(=O)[C@H](Cc1ccccc1)NC(=O)[C@@H](NC(=O)[C@H](CC(C)C)NC(=O)[C@@H]1CCCN1C(=O)[C@H](C)NC(=O)[C@H](CCC(N)=O)NC(=O)[C@@H](N)CC(C)C)[C@@H](C)O)[C@@H](C)O)C(=O)N[C@H](C(=O)N[C@@H](CCCCN)C(=O)N[C@@H](CCCCN)C(=O)N[C@@H](CC(C)C)C(=O)N[C@@H](CC(C)C)C(=O)N[C@@H](CCC(=O)O)C(=O)N[C@@H](CO)C(N)=O)[C@@H](C)CC,K562,resazurin,24 h,16.4 ± 3.3 µM
O=C(O)COc1c2c(c(OCC(=O)O)c3c1C1CC3c3cc4c(cc31)C1CC4c3ccccc31)C1CC2c2cc3c(cc21)C1CC3c2ccccc21,Caco-2,CellTiter-Glo,"2 days, highest concentration 300 µM",117 µM
OCCN1CCN(CCC=C2c3ccccc3Sc3ccc(C(F)(F)F)cc32)CC1,human cells,,"concentration not given, 2 (unit not given)",16.9 µM
CN(C)c1ccc(Cn2c(=O)n(Cc3ccc(C(=O)NCC4COC4)cc3)c(=O)c3ccccc32)cc1,HEp-2,,,44.7 ± 7.2 µM
CC[C@H](C)[C@H](NC(=O)[C@H](CCCCN)NC(=O)[C@H](CCCCN)NC(=O)[C@H](Cc1ccc(O)cc1)NC(=O)[C@H](CC(C)C)NC(=O)[C@@H]1CCCN1C(=O)[C@H](C)N)C(=O)N[C@H](C(=O)N[C@@H](CCCCN)C(=O)N[C@@H](CCCCN)C(=O)N[C@@H](CC(C)C)C(=O)N[C@@H](CC(C)C)C(=O)N[C@@H](CCC(=O)O)C(=O)N[C@@H](CO)C(N)=O)[C@@H](C)CC,K562,resazurin,24 h,> 32 µM
NC(=O)CCNC(=O)c1ccccc1S,human monocytes/macrophages,,7 days,> 2000 µM
COc1ccc(N(C)C(=O)C(Cc2ccccc2)NC(=O)CN2C(=O)NC3(CCCCC3)C2=O)cc1 (stereo not shown),TZM-GFP,XTT,72 h,> 100 µM
O=C(Nc1ccc(F)c(F)c1)c1cc(Cl)ccc1O,A549,,,3.76 µM
OC(c1cc(C(F)(F)F)nc2c(C(F)(F)F)cccc12)C1CCCCN1 (stereo not shown),"Vero E6, HeLa, HEK293T, Huh7.5",nuclei count,"16 h, mean of four cell lines",18.4 ± 2.08 µM
CC(C)[C@H](NC(=O)c1cc(Cl)ccc1O)C(=O)Nc1cc(F)cc(C(F)(F)F)c1,A549,,,10.1 µM
CCN(CCO)CCCC(C)Nc1ccnc2cc(Cl)ccc12 (stereo not shown),"Vero E6, HeLa, HEK293T, Huh7.5",nuclei count,"16 h, mean of four cell lines",> 50 µM
O=C(O[C@H]1CN2CCC1CC2)N1CCc2ccccc2[C@@H]1c1ccccc1,human cells,,"concentration not given, 2 (unit not given)",> 20 µM
C=C1C(=O)O[C@H]2[C@H]1CCC(COC(=O)c1ccc(C(F)(F)F)cc1)=C1CC[C@@](C)(O)[C@@H]12,M9-ENL1,"cell viability, MTT",24 h,10 ± 2 µM
O=C(Nc1cc(F)cc(C(F)(F)F)c1)c1cc(Cl)ccc1O,A549,,,1.97 µM
COc1cc2ncnc(Nc3ccc(F)c(Cl)c3)c2cc1OCCCN1CCOCC1,human cells,,"concentration not given, 2 (unit not given)",> 20 µM
CCC(CC)COC(=O)[C@H](C)N[P@](=O)(OC[C@H]1O[C@@](C#N)(c2ccc3c(N)ncnn23)[C@H](O)[C@@H]1O)Oc1ccccc1,Huh-7,CPE,7 days,15.2 µM
C=C1C(=O)O[C@@H]2C[C@@H](C)[C@@H]3C=CC(=O)[C@@]3(C)[C@@H](O)[C@H]12,BALB/c mouse splenocytes,propidium iodide flow cytometry,"48 h, 10% fetal calf serum",1.2 µM
CCC(C)n1ncn(-c2ccc(N3CCN(c4ccc(OCC5COC(Cn6cncn6)(c6ccc(Cl)cc6Cl)O5)cc4)CC3)cc2)c1=O (stereo not shown),African green monkey cells,,5 days,> 100 µM
OCCN1CCN(CCCN2c3ccccc3Sc3ccc(Cl)cc32)CC1,human cells,,"concentration not given, 2 (unit not given)",18.3 µM
O=C(NC(Cc1ccccc1)C(=O)Nc1ccc([N+](=O)[O-])cc1Cl)c1cc(Cl)ccc1O (stereo not shown),A549,,,6.13 µM

# Some of these lines once more:
Molecule,cell line,test,setting,CC50
O=C(Nc1ccc(F)c(F)c1)c1cc(Cl)ccc1O,A549,,,3.76 µM
OC(c1cc(C(F)(F)F)nc2c(C(F)(F)F)cccc12)C1CCCCN1 (stereo not shown),"Vero E6, HeLa, HEK293T, Huh7.5",nuclei count,"16 h, mean of four cell lines",18.4 ± 2.08 µM
CC(C)[C@H](NC(=O)c1cc(Cl)ccc1O)C(=O)Nc1cc(F)cc(C(F)(F)F)c1,A549,,,10.1 µM
